Assay results of several laboratories.
Lines come from different studies, so protocols differ. “And” joins repeats or separate records; there may be more than shown. ± marks the error that the study gave.

SMILES	test	system	setting	measurement	value
CC(C)(c1ccccc1)c1cc(-n2nc3ccccc3n2)c(O)c(C(C)(C)c2ccccc2)c1		human aged 1-2 years	concentration not given, sunscreen, 95th percentile	daily dermal exposure dose	2.31 ng/kg/day
COc1ccc(C[C@@H]2NC(=O)[C@H]([C@@H](C)O)NC(=O)[C@@H]3[C@@H]4CCN3C(=O)[C@@H]3Cc5cn(c6ccc(F)cc56)CCCCCCN(Cc5ccc(cc5)CCNC(=O)[C@]5(C)CCCN5C2=O)C(=O)CCC(=O)N[C@@H](C)C(=O)N[C@H](CNC(=O)CCCCC[N+](C)(C)C)C(=O)N[C@@H](Cc2cccc(c2)CNC(=O)CO4)C(=O)N3)cc1	measured: Asthenia	humans	concentration not given, Study-003	participants with adverse event	3.2%
CC(C)C(=O)OC[C@H]1O[C@@H](n2ccc(NO)nc2=O)[C@H](O)[C@@H]1O		rat maternal blood dialysate	5 ng/mL, 6 h, room temperature, low concentration, added: NHC 25 ng/mL	bench-top stability	101 ± 2.07%
COc1cc2c(Oc3ccc4[nH]c(C)cc4c3F)ccnc2cc1OCC1(N)CC1		paediatric recurrent refractory sarcoma	10 mg	grade 3 Epistaxis	0%
CC(C)[C@@H]1NC(=O)CNC(=O)[C@H](CC(N)=O)NC(=O)[C@H](CCCNC(=N)N)NC(=O)[C@H](Cc2ccc(O)cc2)NC(=O)[C@H](C(C)C)NC(=O)[C@@H](NC(=O)[C@@H](NC(=O)[C@H](CC(N)=O)NC(=O)[C@H](Cc2c[nH]c3ccccc23)NC(=O)[C@H](C)NC(=O)[C@H](Cc2ccccc2)NC(=O)CN)C(C)C)CSSC[C@@H](C(=O)N[C@@H](Cc2cnc[nH]2)C(=O)N[C@@H](CCCNC(=N)N)C(=O)N[C@@H](CCCNC(=N)N)C(=O)N[C@@H](C)C(=O)N[C@@H](CC(N)=O)C(N)=O)NC(=O)[C@H](C(C)C)NC(=O)[C@H](CCCNC(=N)N)NC1=O		ICR mice, blood	intraductal mammary, 10 mg/kg, day 5	mean platelet volume	6.43 ± 0.27 fL
C[C@H]1COCCN1c1nc(NCc2cccnc2C(F)(F)F)c2cccnc2n1		male CD-1 mouse, femur bone marrow	oral, 1000 mg/kg twice, 48 h, dosing interval 24 h	micronucleated PCE per 2000 PCE	0 and 4 and 1
CCc1cc2c(cc1CC)CC(NC[C@H](O)c1ccc(O)c3[nH]c(=O)ccc13)C2		human	inhaled	lung deposited fraction	0.15
CCc1ccc(CC/C=C/c2ccc3c(c2)C(=O)CC3)cc1		Sprague-Dawley rat, male, serum	oral, 450 mg/kg/day, 14 days	sodium	143 mM
C[C@@H](NC(=O)N1C(=O)[C@H](Cc2ccnc(N)c2)[C@H]1C(=O)O)C1CCCCC1		healthy Chinese adult volunteers	continuous intravenous infusion, dose not given, 5.0 days, CTCAE 5.0, all doses	elevated creatine phosphokinase	5%
CO[C@H]1C[C@@H]2CC[C@@H](C)[C@@](O)(O2)C(=O)C(=O)N2CCCC[C@H]2C(=O)O[C@H]([C@H](C)C[C@@H]2CC[C@@H](OC(=O)NCCOCCOCCOCCOCCOCCOCCOCCOCCC(=O)N3CCc4cc(Cn5nc(-c6ccc7oc(N)nc7c6)c6c(N)ncnc65)ccc4C3)[C@H](OC)C2)C[C@@H](O)[C@H](C)/C=C(\C)[C@@H](O)[C@@H](OC)C(=O)[C@H](C)C[C@H](C)/C=C/C=C/C=C/1C	phase 1 dose escalation, measured: decreased appetite	advanced solid tumour patients	intravenous, 10 mg weekly, grade ≥3	TRAE incidence	0%
C/C(=N\C#N)N(C)Cc1ccc(Cl)nc1		soil	28 days, nominal 1.1	recovery	5%
N[C@@H]1c2ccccc2OC12CCN(c1cnc3c(N4CCCc5ncccc54)n[nH]c3n1)CC2	phase Ia	patients advanced metastatic solid tumours	oral, all doses, any relationship	peripheral oedema AE incidence	46%
CCCCCCCCCCCCCCCC(=O)N[C@@H](CCC(=O)NCCCC[C@H](NC(=O)[C@H](CC(=O)O)NC(=O)[C@H](CO)NC(=O)[C@@H](NC(=O)[C@H](Cc1ccccc1)NC(=O)[C@@H](NC(=O)CNC(=O)[C@H](CCC(N)=O)NC(=O)[C@H](CO)NC(=O)[C@@H](N)Cc1c[nH]cn1)[C@@H](C)O)[C@@H](C)O)C(=O)N[C@@H](CO)C(=O)N[C@@H](CCC(=O)O)C(=O)N[C@@H](Cc1ccc(O)cc1)C(=O)N[C@@H](CC(C)C)C(=O)N[C@@H](CC(=O)O)C(=O)N[C@@H](CO)C(=O)N[C@@H](CCC(=O)O)C(=O)N[C@@H](CCCNC(=N)N)C(=O)N[C@@H](C)C(=O)N[C@@H](CCCNC(=N)N)C(=O)N[C@@H](CC(=O)O)C(=O)N[C@@H](Cc1ccccc1)C(=O)N[C@H](C(=O)N[C@@H](C)C(=O)N[C@@H](Cc1c[nH]c2ccccc12)C(=O)N[C@@H](CC(C)C)C(=O)N[C@@H](CCC(=O)O)C(=O)N[C@@H](C)C(=O)NCC(=O)NCC(=O)O)C(C)C)C(=O)O		human, CrCl ≥20 to <30 mL/min	sc, 100 µg single dose	injection site erythema	0%
Nc1ncnc2c1ncn2[C@@H]1O[C@@H]2COP(=O)([S-])O[C@@H]3[C@H](O)[C@@H](COP([O-])(=S)O[C@H]2[C@H]1O)O[C@H]3n1cnc2c(N)ncnc21.[Na+].[Na+] (stereo partly drawn)		non-tumor-bearing mice, blood	intravenous, 1 mg/kg, toxicity study	MCV	38.9 ± 0.69 fL
COc1ccc(-c2c(-c3ccc(C#N)c(F)c3)nc(N3CCC(N)CC3)n(C)c2=O)cc1F	measured: Anemia	neuroendocrine neoplasm patients	oral, 60 mg, grade 3 to 4, dose expansion	treatment-related adverse event incidence	0%
C#C[C@]1(O)CC[C@H]2[C@@H]3CCc4cc(O)ccc4[C@H]3CC[C@@]21C		zebrafish AB embryos and larvae	24 h	uptake	< 5%
CCCCN1CCC(COC(=O)c2ccc(N)c(O[11CH3])c2)CC1		rhesus monkey whole blood or plasma	5 min	degradation	3 to 5%
COC[C@@H](CC(C)C)NC(=O)c1ccc(C)c(C)c1		Hsd:ICR (CD-1) mouse, female, bone marrow	oral, 1352 mg/kg, 24 h	micronucleated PCE per 1000 PCE	0.1

SMILES	test	system	setting	measurement	value
CC(C)C[C@H](NC(=O)[C@H](CCCCN)NC(=O)OCC1c2ccccc2-c2ccccc21)C(=O)N[C@H](C(=O)N[C@@H](Cc1ccccc1)C(=O)N[C@@H](Cc1ccccc1)C(=O)N[C@@H](CCCCN)C(=O)NCC(=O)N[C@@H](Cc1ccccc1)C(=O)N[C@@H](C)C(=O)N[C@@H](Cc1c[nH]c2ccccc12)C(=O)N[C@@H](CC(N)=O)C(=O)N[C@H](C(=O)N[C@H]1CSSC[C@@H](C(=O)N[C@@H](Cc2c[nH]cn2)C(=O)N[C@@H](CCCNC(=N)N)C(=O)N[C@@H](CCCNC(=N)N)C(=O)N[C@@H](C)C(=O)N[C@@H](CC(N)=O)C(N)=O)NC(=O)[C@H](C(C)C)NC(=O)[C@H](CCCNC(=N)N)NC(=O)[C@H](C(C)C)NC(=O)CNC(=O)[C@H](CC(N)=O)NC(=O)[C@H](CCCNC(=N)N)NC(=O)[C@H](Cc2ccc(O)cc2)NC(=O)[C@H](C(C)C)NC1=O)C(C)C)C(C)C	circular dichroism, measured: antiparallel β-sheet	PBS	80 µM, pH 7.4, added: LTA 1 µM	secondary structure content	43.6%
C[C@@H]1OC(=O)NN=C1c1ccc(-c2ccc(F)cc2)c(C(F)(F)F)c1	phase I trial, measured: Fatigue all grades	human patients	20 mg loading then 1 mg daily	patients with adverse event	100%
O=C1Nc2cc3[nH]nc(-c4ccncc4)c3cc2CN1Cc1ccccc1	CTCAE v4.03	advanced solid tumour patients	intravenous, 7.2 mg/kg	patients with dyspepsia	33%
Oc1cc(Cl)c(-c2ccc(Cl)cc2Cl)c(Cl)c1O	metabolism, GC-MS	female beagle dog liver microsomes	50 µM, 2 h, 37 °C	metabolite formation	not detected
CC(=O)Nc1cccc(-n2c(=O)n(C3CC3)c(=O)c3c(Nc4ccc(I)cc4F)n(C)c(=O)c(C)c32)c1		Japanese patients	dose not given, part	discontinuation due to adverse event	17%
Clc1cc2c(cc1Cl)Oc1c(ccc(Cl)c1Cl)O2	ultrafiltration	cow milk whey	20 nM nominal in whole milk	final permeate concentration	0.11 nM
O=S(=O)(Nc1ccccc1)c1ccc(NC(=S)Nc2ccccc2)cc1	measured: BA%	female mouse, blood	oral, 80 mg/kg daily, 14 days	blood cell fraction	0.71%
CN1CCN(S(=O)(=O)c2cc([N+](=O)[O-])ccc2N(CCOS(C)(=O)=O)CCOS(C)(=O)=O)CC1		naive NOD/SCID mice, pooled blood	intraperitoneal, 25 mg/kg, week 4	sodium	158 mM
Cc1c(COC(=O)[C@@H]2[C@H](/C=C(\Cl)C(F)(F)F)C2(C)C)cccc1-c1ccccc1 (racemic)	measured: CYP3A5	human, age 1 year, recombinant human CYP3A5	0.1 µM	enzyme contribution to clearance	2.03%
COc1ncccc1-c1cnn2ccc(N3CCN(C(=O)OC(C)C)CC3)nc12		rat, CCI cold allodynia model, brain	oral, 1 mg/kg, 240 min	drug concentration	430 nM
CC(=O)c1c(C)c2cnc(Nc3ccc(C4CCN(CCS(C)(=O)=O)CC4)cn3)nc2n(C2CCCC2)c1=O		HR+/HER2- advanced breast cancer patients	oral, 150 mg	patients with any TEAE	100%
COc1ccc2nc3cc(Cl)ccc3c(Nc3cc(CN4CCCC4)c(O)c(CN4CCCC4)c3)c2n1		mouse, blood	intraperitoneal, 14 mg/kg	neutrophil count	1.47 10⁹/L
O=c1ccc2ncc(=O)n3c2n1C[C@H]3CN1CCC(NCc2cc3c(cn2)OCCC3)CC1	measured: respiratory thoracic mediastinal disorders	healthy human participants	oral, 1500 mg, added: rifampicin 600 mg	adverse event incidence	6%
O=C(Nc1ccccc1)C1CCN(C(=O)Oc2cccnc2)CC1	adverse event reporting	healthy women	oral, 60 mg, 7 days	subjects with dry mouth	0%
C[C@]1(CO)Cc2ncn(-c3ccc(C#N)c(Cl)c3)c2C(=O)O1		healthy Japanese adults, plasma	80 mg once daily, after first dose, multiple dose	Tmax	1 h
CCN1[C@@H](C(=O)NC23CCC(C(=O)O)(CC2)CC3)[C@H](c2cccc(Cl)c2F)[C@]2(C(=O)Nc3cc(Cl)ccc32)C12CCCCC2		patients with advanced solid tumours	oral, 150 mg	Myalgia incidence	0%
CC[C@H](C)[C@H](NC(=O)[C@H](CC(C)C)NC(=O)[C@H](CCCCN)NC(=O)[C@@H](NC(=O)[C@H](C)NC(=O)[C@H](CCC(=O)O)NC(=O)[C@H](Cc1c[nH]cn1)NC(=O)[C@@H](NC(=O)[C@H](CCCCN)NC(=O)[C@H](CCC(N)=O)NC(=O)[C@H](Cc1ccccc1)NC(=O)[C@@H](N)C(C)C)[C@@H](C)CC)[C@@H](C)CC)C(N)=O	hemolysis	mouse erythrocytes		HC10	256 µM
Cn1cc(-c2nc(N[C@@H]3CCCC[C@@H]3N)c(F)c3c2C(=O)NC3)cn1	measured: gingival bleeding	patients with relapsed or refractory AML	oral, 100 mg once daily	hemorrhagic adverse events	14%
